Results gathered from unrelated publications.
Values joined by “and” are separate records of one study, mostly repeats; a detail may differ. ± gives the spread as reported.
PTGS1: Prostaglandin G/H synthase 1 (PTGS1, Ovis aries, UniProt P05979)
USP51: Ubiquitin carboxyl-terminal hydrolase 51 (USP51, Homo sapiens, UniProt Q70EK9)
PDK4: [Pyruvate dehydrogenase (acetyl-transferring)] kinase isozyme 4, mitochondrial (PDK4, Homo sapiens, UniProt Q16654)
Adhesin FmlH lectin domain: Adhesin FmlH, lectin domain (Escherichia coli, UniProt Q1RBS0)
PLG: Plasminogen (PLG, Homo sapiens, UniProt P00747)
ADRA2B: Alpha-2B adrenergic receptor (ADRA2B, Homo sapiens, UniProt P18089)
CAPN1: Calpain-1 catalytic subunit (CAPN1, Homo sapiens, UniProt P07384)
MAL12: Alpha-glucosidase MAL12 (MAL12, Saccharomyces cerevisiae S288c, UniProt P53341)

target	test	test system	conditions	inhibition	SMILES
C-X-C chemokine receptor type 5 (CXCR5, Homo sapiens, UniProt P32302)	β-arrestin recruitment, antagonist		1 µM	-2%	O=C1CO[C@H](CNC(=O)C2(c3ccc(Cl)cc3)CC2)CN1C1Cc2ccccc2C1
PTGS1	enzyme activity		1 µM	31.4%	CS(=O)(=O)c1ccc(-n2cc(C=NN=c3[nH]c(-c4ccc([N+](=O)[O-])cc4)cs3)c(-c3ccc(Br)cc3)n2)cc1
CK2			0.1 µM	2% and 1%	C=CC(=O)Nc1cccc(-c2cnc3[nH]cc(C(=O)NC(C)(C)C)c3n2)c1
crk3, with CYC6 (Leishmania mexicana, UniProt O15851)	IMAP fluorescence polarisation		30 µM, with L. major CYC6	0%	COc1cc(Nc2ccn3nccc3n2)cc(OC)c1OC
USP51	enzyme activity, inhibitor		1 µM	14.1 ± 5.2%	NC(=O)c1ccccc1NC(=O)CSc1ncnc2nc(N3CCCCCC3)sc12
PDK4	kinase activity		0.1 µM, with: ATP at Km	-2.5%	CCn1cc(C(=O)O)c(=O)c2c(N)c(F)c(NC3CCCCC3)cc21
Adhesin FmlH lectin domain	binding to desialylated mucin, ELISA competition	UPEC UTI89	100 µM	85.7 ± 1.6%	N#Cc1ccc(O[C@@H]2O[C@H](CO)[C@H](O)[C@H](O)[C@H]2O)cc1
USP51	enzyme activity, inhibitor		1 µM	33.5 ± 14.9%	COc1cc(C(=O)Nc2cccc(NC(=O)c3cc(F)c(F)cc3Cl)c2)cc(OC)c1OC
Histone-lysine N-methyltransferase 2C (KMT2C, Homo sapiens, UniProt Q8NEZ4)	enzyme activity, inhibitor, radiometric		10 µM	1%	CN(C)C/C=C/C(=O)Nc1ccc2nc(NCCCCCN(C)C)nc(NCCCCCCN(C)C)c2c1
human Y1 receptor	agonist radioligand binding		0.05 µM	-13%	CN(Cc1ccc(/C=C/C(=O)NO)cc1)CC12CC3CC(CC(C3)C1)C2
PLG	enzyme activity, inhibitor		100 µM	-18%	Cc1ccc(CNC(=O)C(CCc2ccccc2)NC(=O)C(NC(=O)c2ccc(OCc3ccc(C(C)(C)C)cc3)cc2)C(C)O)cc1 (stereo not shown)
Endothelin-1 receptor (EDNRA, Homo sapiens, UniProt P25101)	ligand displacement, radioligand		1 µM	-31%	O=C1c2sc(-c3ccc(N4CCC(F)C4)nc3F)nc2CCN1c1cccnc1 (stereo not shown)
PTGS1	enzyme activity		100 µM	90.1%	CC(C)Cc1ccc(-c2nn(-c3ccc(S(C)(=O)=O)cc3)cc2C=NN=c2[nH]c(-c3ccc(Br)cc3)cs2)cc1
glycine receptor, rat	binding, radioligand binding		250 µM	-14%	C[Si](C)(C)C[C@H](CN)CC(=O)O
Adhesin FmlH lectin domain	binding to desialylated mucin, ELISA competition	UPEC UTI89	100 µM	97.2 ± 0.4%	COc1ccccc1O[C@@H]1O[C@H](CO)[C@H](O)[C@H](O)[C@H]1O
PTGS1	enzyme activity		10 µM	75.9%	CS(=O)(=O)c1ccc(-n2cc(C=NN=c3[nH]c(-c4ccc(Br)cc4)cs3)c(-c3ccc(Br)cc3)n2)cc1
USP51	enzyme activity, inhibitor		1 µM	11.9 ± 2%	Cc1noc(-c2ccc(O)cc2O)c1-c1ccc(Cl)cc1
ADRA2B	ligand displacement, radioligand		10 µM	0%	CC(C)Cn1c(SCC(=O)N2CCc3ccccc3C2)nc2cc(Cl)ccc2c1=O
USP51	enzyme activity, inhibitor		1 µM	36.2 ± 9.9%	COc1cc(NS(=O)(=O)c2ccc3c(c2)oc(=O)n3C)cc(OC)c1OC
CAPN1	enzyme activity, inhibitor		100 µM	-12%	COc1ccc(C[C@H](NC(=O)Cc2cccc(Oc3ccccc3)c2)C(=O)N[C@@H](Cc2c[nH]c3ccccc23)C(=O)NCc2ccc(C)cc2)cc1OC
PTGS1	enzyme activity		100 µM	78%	Cc1ccc(-c2nn(-c3ccc(S(C)(=O)=O)cc3)cc2C=NN=c2[nH]c(-c3ccc([N+](=O)[O-])cc3)cs2)cc1
USP51	enzyme activity, inhibitor		1 µM	10 ± 2%	COc1ccc(OC)c(NC(=O)c2ccc(OC)nc2OC)c1
Adhesin FmlH lectin domain	binding to desialylated mucin, ELISA competition	UPEC UTI89	100 µM	90.5 ± 0.6%	OC[C@H]1O[C@@H](Oc2ccccc2Cl)[C@H](O)[C@@H](O)[C@H]1O
Stimulator of interferon genes protein (STING1, Homo sapiens, UniProt Q86WV6, H232R)	reporter gene, inhibitor, Lucia reporter	THP1-Dual	concentration not given, wild-type STING, with: diABZI	inactive	O=C(N[C@@H](CCNC(=O)c1ccc([N+](=O)[O-])o1)c1nc2ccccc2[nH]1)c1ccc(-n2cnnn2)cc1
Mu-type opioid receptor (Cavia porcellus, UniProt A0ACM8Q262)	binding, radioligand binding	guinea pig brain membranes	1 µM, with: [3H]DAMGO	19%	CCCC(=O)O[C@@]1(C)CN(Cc2ccccc2)[C@H]2C[C@@H]1CC(=O)[C@@H]2C
PTGS1	enzyme activity		10 µM	55.3%	CS(=O)(=O)c1ccc(-n2cc(C=NN=c3[nH]c(-c4ccc(Br)cc4)cs3)c(-c3ccc([N+](=O)[O-])cc3)n2)cc1 (mixture of isomers)

target	test	test system	conditions	inhibition	SMILES
CAPN1	enzyme activity, inhibitor		100 µM	7%	C[C@H](NC(=O)[C@H](CC(=O)NCC(C)(C)C)NC(=O)CCc1ccccc1)C(=O)NCc1ccccc1Cl
Voltage-dependent T-type calcium channel subunit alpha-1H (CACNA1H, Homo sapiens, UniProt O95180)	ion current, antagonist, whole-cell patch clamp	HEK293T	10 µM	2.66 ± 0.02%	CC(=O)C12NC(C)(C)CC1(C)C(=O)C1=C2c2c(c3c4n2C(C)(C)CC2=C4C4(CC(C)(C)NC(C)(C4)C2=O)CC3(C)C)C(=O)C(C)(C)N1 (single isomer, unassigned; (+))
Neutrophil collagenase (MMP8, Homo sapiens, UniProt P22894)			1 µM	22%	N=C(N)NCCCC(NC(=O)C(CC(=O)NO)Cc1ccc2ccccc2c1)C(=O)NC(Cc1c[nH]c2ccccc12)C(=O)NC(CCC(=O)O)C(N)=O (stereo not shown)
MAL12	inhibitor		100 µg/mL, 0.4167 h, with: p-nitrophenyl glucoside substrate	39.8 ± 4.61%	CCOCc1ccc(O[C@@H]2O[C@@H](C)[C@H](O)[C@@H](O)[C@H]2O)cc1
Adhesin FmlH lectin domain	binding to desialylated mucin, ELISA competition	UPEC UTI89	100 µM	49.8 ± 2.5%	OC[C@H]1O[C@@H](SCCc2ccccc2)[C@H](O)[C@@H](O)[C@H]1O
MAL12	enzyme activity, inhibitor		100 µM, DMSO solvent, with: pNPG substrate	56.22 ± 0.56%	Oc1cc2c(cc1O)C(c1cccc3ccccc13)NCC2 (stereo not shown)
Histamine H3 receptor (HRH3, Homo sapiens, UniProt Q9Y5N1)	ligand displacement, radioligand		10 µM	-15%	Brc1ccccc1-c1nnc(CSc2nnnn2-c2ccccc2)o1
glycine receptor, rat	binding, radioligand binding		70 µM	12%	C[Si]1(C[C@H](CN)CC(=O)O)CCCC1
CAPN1	enzyme activity, inhibitor		100 µM	25%	Cc1ccc(CNC(=O)[C@H](CCc2ccccc2)NC(=O)[C@H](CC(=O)NCC(C)(C)C)NC(=O)c2ccc(OCc3ccccc3)cc2)cc1
Adhesin FmlH lectin domain	binding to desialylated bovine submaxillary mucin, inhibitor, ELISA competition	UPEC UTI89	1 µM	8.7 ± 3.1%	Cc1cc(=O)oc2cc(O[C@@H]3O[C@H](CO)[C@H](O)[C@H](O)[C@H]3O)ccc12
USP51	enzyme activity, inhibitor		1 µM	5.5 ± 1.1%	Nc1nnc(SCc2nc3ccccc3c(=O)[nH]2)s1
Adhesin FmlH lectin domain	binding to desialylated mucin, ELISA competition	UPEC UTI89	10 µM, with: desialylated bovine submaxillary mucin	30.4 ± 1.8%	N#Cc1ccccc1O[C@@H]1O[C@H](CO)[C@H](O)[C@H](O)[C@H]1O
5-hydroxytryptamine receptor 5A (HTR5A, Homo sapiens, UniProt P47898)	radioligand binding		concentration not given, with: [3H]LSD	12.9%	CC1Cc2ccccc2N1C(=O)CN1CCN(Cc2ccccc2)CC1 (stereo not shown)
Adhesin FmlH lectin domain	binding to desialylated mucin, ELISA competition	UPEC UTI89	100 µM	86.5 ± 1.7%	OC[C@H]1O[C@H](Oc2ccc(-c3ccccc3)cc2)[C@H](O)[C@@H](O)[C@H]1O
MAL12	enzyme activity, inhibitor		100 µM, DMSO solvent, with: pNPG substrate	7.67 ± 5.42%	Oc1cc2c(cc1O)C(c1ccccc1)NCC2 (stereo not shown)
USP51	enzyme activity, inhibitor		1 µM	8.1 ± 2.7%	COc1cc(C(=O)Nc2nnc(-c3nc4ccccc4n(C)c3=O)o2)cc(OC)c1OC
Bromodomain-containing protein 3, BD2 (BRD3, Homo sapiens, UniProt Q15059)			1 µM	-5.06%	CCn1cc(-c2cccc(C(F)(F)F)c2)c2sc(C(=N)NC3CCS(=O)(=O)CC3)cc2c1=O
Adhesin FmlH lectin domain	binding to desialylated mucin, ELISA competition	UPEC UTI89	100 µM	65.1 ± 1.4%	Nc1ccc(O[C@@H]2O[C@H](CO)[C@H](O)[C@H](O)[C@H]2O)cc1
Histone-lysine N-methyltransferase SETD2 (SETD2, Homo sapiens, UniProt Q9BYW2)	enzyme activity, inhibitor, radiometric		10 µM	65%	C/C=C/C(=O)Nc1ccc2nc(NCCCCCN(C)C)nc(NCCCCCCN(C)C)c2c1
PLG	enzyme activity, inhibitor		100 µM	-9%	Cc1ccc(CNC(=O)C(CCc2ccccc2)NC(=O)C(NC(=O)Cc2cccc(Oc3ccccc3)c2)C(C)O)cc1 (stereo not shown)
Genome polyprotein, NS3 helicase domain (Hepatitis C virus genotype 1b, UniProt Q9WMX2)	DNA binding, inhibitor	hepatitis C virus	100 µM, with: Cy5-dT15 DNA	100%	N#C/C(=C\c1ccc(O)c(O)c1)C(=O)c1ccc(O)c(O)c1
ADRA2B	ligand displacement, radioligand		1 µM	-7%	O=C1c2sc(-c3ccc(N4CCC(CO)CC4)nc3F)nc2CCN1c1cccnc1
USP51	enzyme activity, inhibitor		1 µM	31.9 ± 14.5%	CCOc1ccc(C(=O)Nc2nnc(Cc3nc4ccccc4[nH]3)s2)cc1OCC
PDK4	enzyme activity, inhibitor		1 µM	8%	CN1CC[C@@H](COc2cnc(C#N)cc2-c2ccn3nc(NC(=O)C4CC4)cc3c2)C1
PTGS1	enzyme activity		10 µM	60.4%	CS(=O)(=O)c1ccc(-n2cc(C=NN=c3[nH]c(-c4ccc([N+](=O)[O-])cc4)cs3)c(-c3ccc([N+](=O)[O-])cc3)n2)cc1
Solute carrier family 22 member 12 (SLC22A12, Homo sapiens, UniProt Q96S37)	uric acid uptake, inhibitor	HEK293 transiently expressing URAT1	15 µM, with: [14C]uric acid	98.6%	O=C(NS(=O)(=O)c1cccs1)c1cc2ccccc2n1Cc1ccc(Br)c2ccccc12

Some of these lines once more:
target	test	test system	conditions	inhibition	SMILES
USP51	enzyme activity, inhibitor		1 µM	14.1 ± 5.2%	NC(=O)c1ccccc1NC(=O)CSc1ncnc2nc(N3CCCCCC3)sc12
PDK4	kinase activity		0.1 µM, with: ATP at Km	-2.5%	CCn1cc(C(=O)O)c(=O)c2c(N)c(F)c(NC3CCCCC3)cc21
Adhesin FmlH lectin domain	binding to desialylated mucin, ELISA competition	UPEC UTI89	100 µM	85.7 ± 1.6%	N#Cc1ccc(O[C@@H]2O[C@H](CO)[C@H](O)[C@H](O)[C@H]2O)cc1
USP51	enzyme activity, inhibitor		1 µM	33.5 ± 14.9%	COc1cc(C(=O)Nc2cccc(NC(=O)c3cc(F)c(F)cc3Cl)c2)cc(OC)c1OC
Histone-lysine N-methyltransferase 2C (KMT2C, Homo sapiens, UniProt Q8NEZ4)	enzyme activity, inhibitor, radiometric		10 µM	1%	CN(C)C/C=C/C(=O)Nc1ccc2nc(NCCCCCN(C)C)nc(NCCCCCCN(C)C)c2c1
human Y1 receptor	agonist radioligand binding		0.05 µM	-13%	CN(Cc1ccc(/C=C/C(=O)NO)cc1)CC12CC3CC(CC(C3)C1)C2
PLG	enzyme activity, inhibitor		100 µM	-18%	Cc1ccc(CNC(=O)C(CCc2ccccc2)NC(=O)C(NC(=O)c2ccc(OCc3ccc(C(C)(C)C)cc3)cc2)C(C)O)cc1 (stereo not shown)
Endothelin-1 receptor (EDNRA, Homo sapiens, UniProt P25101)	ligand displacement, radioligand		1 µM	-31%	O=C1c2sc(-c3ccc(N4CCC(F)C4)nc3F)nc2CCN1c1cccnc1 (stereo not shown)
